# Experimental data pooled from the literature.
# Protocols differ between the studies behind these lines. Several values in a cell are separate wells, animals, samples, runs or records. ± gives the spread as reported.
# TDP1: Tyrosyl-DNA phosphodiesterase 1 (TDP1, Homo sapiens, UniProt Q9NUW8)
# UniProt Q9NUW8, sequence (whole entry, looked up): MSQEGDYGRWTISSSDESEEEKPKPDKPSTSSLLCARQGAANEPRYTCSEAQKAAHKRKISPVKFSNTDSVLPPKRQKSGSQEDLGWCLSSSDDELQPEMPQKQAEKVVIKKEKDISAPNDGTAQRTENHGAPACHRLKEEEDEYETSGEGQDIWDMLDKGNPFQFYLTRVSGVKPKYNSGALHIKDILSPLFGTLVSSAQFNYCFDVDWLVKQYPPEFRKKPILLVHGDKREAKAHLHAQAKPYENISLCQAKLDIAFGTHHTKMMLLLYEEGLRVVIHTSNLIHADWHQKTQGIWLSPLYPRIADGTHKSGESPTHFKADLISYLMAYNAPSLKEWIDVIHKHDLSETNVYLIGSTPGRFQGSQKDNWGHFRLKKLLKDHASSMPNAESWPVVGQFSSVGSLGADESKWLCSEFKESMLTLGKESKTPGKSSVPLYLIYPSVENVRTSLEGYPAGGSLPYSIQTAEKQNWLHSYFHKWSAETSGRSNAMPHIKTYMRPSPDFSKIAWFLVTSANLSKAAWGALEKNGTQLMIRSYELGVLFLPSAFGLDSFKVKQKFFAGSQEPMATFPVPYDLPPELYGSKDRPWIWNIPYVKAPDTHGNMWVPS
SMILES,target or system,test,conditions,scale,endpoint,value
O=C(C=Cc1ccccc1)c1cc(Br)ccc(=O)c1O,HepDES19,"cell growth or viability, MTS",72 h,,CC50,1.6 µM
COc1cc(N2CCN(C(=O)C3CCCN3)CC2)ccc1Nc1ncc(Cl)c(Nc2ccccc2P(C)(C)=O)n1 (stereo not shown),NCI-H3122,"cell growth or viability, CCK-8","2.5 nM, 48 h",,viability,98% and 92%
O=C(Oc1cccccc1=O)c1ccccc1,HepDES19,"cell growth or viability, MTS",72 h,,CC50,98.9 µM
COC1C=COC2(C)Oc3c(C)c(O)c4c(c3C2=O)C2=NC3(CCN(CC(C)C)CC3)NC2=C(NC(=O)C(C)=CC=CC(C)C(O)C(C)C(O)C(C)C(OC(=O)c2cccnc2)C1C)C4=O (stereo not shown),THP-1 derived macrophages,,,relative to: intracellular over extracellular,intracellular/extracellular ratio,44
COc1ccc2ncc(F)c(C[C@H](O)[C@H]3OC[C@H](NCc4ccc(Cl)c(Cl)c4)CO3)c2n1,HepG2,cytotoxicity,24 h,,IC50,28 mg/L
c1cc2nc(c1)-c1cccc(n1)CCCc1ccc(cc1)OCCCCCCOc1ccc(cc1)CCC2,HepG2,"cell growth or viability, MTT","12.5 µM, 24 h",,viability,96.3%
COC1C=COC2(C)Oc3c(C)c(O)c4c(c3C2=O)C2=NC3(CCN(CC(C)C)CC3)NC2=C(NC(=O)C(C)=CC=CC(C)C(O)C(C)C(O)C(C)C(OC(=O)Nc2cnccn2)C1C)C4=O (stereo not shown),THP-1 derived macrophages,,,relative to: intracellular over extracellular,intracellular/extracellular ratio,31
CN1CCCNC(=O)c2cccc(c2)C(=O)NCCCN(C)CCCNc2cccc3c2C(=O)c2cccc(c2C3=O)NCCC1,Ca9-22,"cell growth or viability, CCK-8","5 µM, 48 h",,viability,14.1%
Cc1cccnc1-c1csc(C(=O)Nc2cc(Cl)cc(NS(C)(=O)=O)c2)c1,HUASMC,"viability, CellTiter-Glo",10 days,,CC50,> 10 µM
O=c1c(O)ccc(-c2ccco2)cc1O,HepDES19,"cell growth or viability, MTS",72 h,,CC50,25.5 µM
CCCCCCCC(=O)Oc1c(C)c(OC)c2c(/C=C/c3ccccc3)c(CCCCCC)c(=O)oc2c1C,normal human liver cell line,"cytotoxicity, SRB",72 h,,IC50,> 50 µM
N=C(N)NCCC[C@@H]1NC(=O)[C@@H](CCCNC(=N)N)NC(=O)[C@H](CCCNC(=N)N)NC(=O)[C@@H](Cc2ccc3ccccc3c2)NC(=O)[C@@H](Cc2ccc3ccccc3c2)NC(=O)[C@@H](Cc2ccc3ccccc3c2)NC(=O)[C@@H](CCCNC(=N)N)NC1=O,human red blood cells,haemolysis,"2 h, 37 °C",,HC50,150 µg/mL
COc1c(C)c(OS(=O)(=O)c2ccccc2)c(C)c(OS(=O)(=O)c2ccccc2)c1C(=O)/C=C/c1ccccc1,normal human liver cell line,"cytotoxicity, SRB",72 h,,IC50,> 50 µM
O=CCNCCOn1c(=O)n(OCCNCCO)c(=O)n(OCCNCCOn2c(=O)n(OCCNCCO)c(=O)n(OCCNCCO)c2=O)c1=O,HUVEC,"cell growth or viability, MTT","100 µg/mL, 48 h",,viability,22.2%
O=C(O)c1ccc(Nc2c(-c3ccccc3)nc3ccc(CON=CC4CCCCN4C(=O)OCc4ccccc4)cn23)cc1 (stereo not shown),TDP1,"enzyme activity, inhibitor","100 µM, unpurified compound",,inhibition,6.5%
O=S(=O)(NCc1ccncc1)c1ccc(C2CCCCC2)cc1,human iPSC-derived microglia-like cells,"cytotoxicity, propidium iodide uptake",,,TC50,0.177 µM
O=c1c(O)c(-c2ccc(O)c(O)c2)oc2cc(O)cc(O)c12,MDBK,"cell growth or viability, MTT",72 h,,CC50,> 256 mg/L
Cc1cc(O)c(=O)c(O)cc1C(=O)c1ccc2ccccc2c1,HepDES19,"cell growth or viability, MTS",72 h,,CC50,28.5 µM
COc1ccccc1NC(=O)OC1C(C)C(OC)C=COC2(C)Oc3c(C)c(O)c4c(c3C2=O)C2=NC3(CCN(CC(C)C)CC3)NC2=C(NC(=O)C(C)=CC=CC(C)C(O)C(C)C(O)C1C)C4=O (stereo not shown),THP-1 derived macrophages,,30 min,,intracellular/extracellular ratio,12.9
Cc1cc(O)c(=O)c(O)cc1-c1ccc([N+](=O)[O-])cc1,HepDES19,"cell growth or viability, MTS",72 h,,CC50,79 µM
COc1ccc2ncc(F)c(CC[C@H]3OC[C@H](NCc4ccc(Cl)c(Cl)c4)CO3)c2n1,HepG2,cytotoxicity,24 h,,IC50,9.35 mg/L
Cc1ccc(-n2cc(CSc3nc4ccccc4n3Cc3cn(-c4ccc(C)cc4)nn3)nn2)cc1,HEK293,MTT,7.81 ppm,,viability,86.2%
N=C(N)NCCC[C@@H]1NC(=O)[C@H](CCCNC(=N)N)NC(=O)[C@@H](CCCNC(=N)N)NC(=O)[C@@H](CCCNC(=N)N)NC(=O)[C@@H](C(c2ccccc2)c2ccccc2)NC(=O)[C@H](Cc2c[nH]c3ccccc23)NC(=O)[C@@H](C(c2ccccc2)c2ccccc2)NC1=O,human red blood cells,haemolysis,"2 h, 37 °C",,HC50,310 µg/mL
CCCCCC(=O)Oc1c(C)c(OC)c2c(/C=C/c3ccccc3)c(CCCC)c(=O)oc2c1C,normal human liver cell line,"cytotoxicity, SRB",72 h,,IC50,> 50 µM
Cc1cc(O)c(=O)c(O)cc1-c1ccc(Cl)cc1,HepDES19,"cell growth or viability, MTS",72 h,,CC50,> 100 µM
O=C(O)c1ccc(Nc2c(-c3ccccc3)nc3ccc(CON=Cc4ccc(-n5cncn5)cc4)cn23)cc1 (mixture of isomers),TDP1,"enzyme activity, inhibitor","100 µM, unpurified compound",,inhibition,20.9%
N=C(N)NCCC[C@@H]1NC(=O)[C@H](CCCNC(=N)N)NC(=O)[C@@H](Cc2ccc3ccccc3c2)NC(=O)[C@H](Cc2c[nH]c3ccccc23)NC(=O)[C@@H](Cc2ccc3ccccc3c2)NC(=O)[C@@H](CCCNC(=N)N)NC(=O)[C@@H](CCCNC(=N)N)NC1=O,human red blood cells,haemolysis,"2 h, 37 °C",,HC50,255 µg/mL
O=C(Oc1cccccc1=O)c1cccc(Cl)c1,HepDES19,"cell growth or viability, MTS",72 h,,CC50,96.5 µM
COC1C=COC2(C)Oc3c(C)c(O)c4c(c3C2=O)C2=NC3(CCN(CC(C)C)CC3)NC2=C(NC(=O)C(C)=CC=CC(C)C(O)C(C)C(O)C(C)C(OC(=O)Nc2cccnn2)C1C)C4=O (stereo not shown),THP-1 derived macrophages,,30 min,relative to: intracellular over extracellular,intracellular/extracellular ratio,23.1
O=C(/C=C/c1ccccn1)c1ccccc(=O)c1O,HepDES19,"cell growth or viability, MTS",72 h,,CC50,100 µM
Cl.NCc1ccc2c(c1)CN(C1CCC(=O)NC1=O)C2=O (stereo not shown),SNU-886,CellTiter-Glo,"concentration not given, 72 h",,minimum viability,87 ± 5.39%
